Results from different studies.
Each numbered part is a random draw from the data of one study; scales do not carry over between parts.
Sequence of UniProt Q15375 (whole entry, looked up): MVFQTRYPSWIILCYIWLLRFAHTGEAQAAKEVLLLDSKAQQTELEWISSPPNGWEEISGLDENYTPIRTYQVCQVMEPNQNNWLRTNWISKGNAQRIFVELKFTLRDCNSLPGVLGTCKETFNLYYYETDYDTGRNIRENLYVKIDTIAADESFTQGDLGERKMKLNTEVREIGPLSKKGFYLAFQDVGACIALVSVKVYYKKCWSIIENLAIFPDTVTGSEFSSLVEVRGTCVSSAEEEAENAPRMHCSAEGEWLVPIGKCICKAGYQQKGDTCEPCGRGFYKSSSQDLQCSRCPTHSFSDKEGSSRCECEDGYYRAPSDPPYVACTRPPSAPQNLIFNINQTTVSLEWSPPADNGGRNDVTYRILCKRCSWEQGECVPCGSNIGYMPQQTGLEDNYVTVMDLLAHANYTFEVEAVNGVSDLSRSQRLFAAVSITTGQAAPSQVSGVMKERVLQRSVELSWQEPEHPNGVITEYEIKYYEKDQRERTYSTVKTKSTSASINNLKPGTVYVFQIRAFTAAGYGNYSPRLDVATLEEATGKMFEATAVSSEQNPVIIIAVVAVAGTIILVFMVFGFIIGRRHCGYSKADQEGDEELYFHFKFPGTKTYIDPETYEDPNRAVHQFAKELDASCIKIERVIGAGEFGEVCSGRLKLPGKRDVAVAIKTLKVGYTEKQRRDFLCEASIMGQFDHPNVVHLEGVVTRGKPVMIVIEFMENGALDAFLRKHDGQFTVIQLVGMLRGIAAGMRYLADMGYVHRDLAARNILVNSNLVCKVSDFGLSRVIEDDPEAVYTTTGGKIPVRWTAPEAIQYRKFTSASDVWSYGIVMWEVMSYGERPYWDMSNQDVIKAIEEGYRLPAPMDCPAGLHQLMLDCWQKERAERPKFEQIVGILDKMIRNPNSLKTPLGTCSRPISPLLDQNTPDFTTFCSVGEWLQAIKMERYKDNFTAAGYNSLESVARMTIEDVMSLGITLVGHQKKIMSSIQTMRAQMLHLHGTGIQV
Sequence of UniProt Q15349 (whole entry, looked up): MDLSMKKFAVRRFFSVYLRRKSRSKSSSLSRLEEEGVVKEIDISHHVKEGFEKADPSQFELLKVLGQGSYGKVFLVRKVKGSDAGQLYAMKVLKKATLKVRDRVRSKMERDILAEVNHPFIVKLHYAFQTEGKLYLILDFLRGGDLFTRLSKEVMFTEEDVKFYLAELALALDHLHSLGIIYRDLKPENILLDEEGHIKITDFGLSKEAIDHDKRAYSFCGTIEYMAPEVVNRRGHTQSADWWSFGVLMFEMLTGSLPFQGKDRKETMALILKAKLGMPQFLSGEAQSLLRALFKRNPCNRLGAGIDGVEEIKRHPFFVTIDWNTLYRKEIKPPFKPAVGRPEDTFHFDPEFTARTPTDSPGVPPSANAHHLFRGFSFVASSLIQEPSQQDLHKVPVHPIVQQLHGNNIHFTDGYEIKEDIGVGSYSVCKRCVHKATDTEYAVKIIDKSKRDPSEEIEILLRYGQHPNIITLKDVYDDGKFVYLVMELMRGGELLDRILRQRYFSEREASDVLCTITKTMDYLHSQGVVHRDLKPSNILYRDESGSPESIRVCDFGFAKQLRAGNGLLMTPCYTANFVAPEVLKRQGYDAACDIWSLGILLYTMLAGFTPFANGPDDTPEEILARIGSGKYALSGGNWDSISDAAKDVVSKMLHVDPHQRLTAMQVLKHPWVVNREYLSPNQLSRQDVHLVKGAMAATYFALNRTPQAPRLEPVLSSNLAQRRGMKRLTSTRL
Sequence of UniProt Q9NRP7 (whole entry, looked up): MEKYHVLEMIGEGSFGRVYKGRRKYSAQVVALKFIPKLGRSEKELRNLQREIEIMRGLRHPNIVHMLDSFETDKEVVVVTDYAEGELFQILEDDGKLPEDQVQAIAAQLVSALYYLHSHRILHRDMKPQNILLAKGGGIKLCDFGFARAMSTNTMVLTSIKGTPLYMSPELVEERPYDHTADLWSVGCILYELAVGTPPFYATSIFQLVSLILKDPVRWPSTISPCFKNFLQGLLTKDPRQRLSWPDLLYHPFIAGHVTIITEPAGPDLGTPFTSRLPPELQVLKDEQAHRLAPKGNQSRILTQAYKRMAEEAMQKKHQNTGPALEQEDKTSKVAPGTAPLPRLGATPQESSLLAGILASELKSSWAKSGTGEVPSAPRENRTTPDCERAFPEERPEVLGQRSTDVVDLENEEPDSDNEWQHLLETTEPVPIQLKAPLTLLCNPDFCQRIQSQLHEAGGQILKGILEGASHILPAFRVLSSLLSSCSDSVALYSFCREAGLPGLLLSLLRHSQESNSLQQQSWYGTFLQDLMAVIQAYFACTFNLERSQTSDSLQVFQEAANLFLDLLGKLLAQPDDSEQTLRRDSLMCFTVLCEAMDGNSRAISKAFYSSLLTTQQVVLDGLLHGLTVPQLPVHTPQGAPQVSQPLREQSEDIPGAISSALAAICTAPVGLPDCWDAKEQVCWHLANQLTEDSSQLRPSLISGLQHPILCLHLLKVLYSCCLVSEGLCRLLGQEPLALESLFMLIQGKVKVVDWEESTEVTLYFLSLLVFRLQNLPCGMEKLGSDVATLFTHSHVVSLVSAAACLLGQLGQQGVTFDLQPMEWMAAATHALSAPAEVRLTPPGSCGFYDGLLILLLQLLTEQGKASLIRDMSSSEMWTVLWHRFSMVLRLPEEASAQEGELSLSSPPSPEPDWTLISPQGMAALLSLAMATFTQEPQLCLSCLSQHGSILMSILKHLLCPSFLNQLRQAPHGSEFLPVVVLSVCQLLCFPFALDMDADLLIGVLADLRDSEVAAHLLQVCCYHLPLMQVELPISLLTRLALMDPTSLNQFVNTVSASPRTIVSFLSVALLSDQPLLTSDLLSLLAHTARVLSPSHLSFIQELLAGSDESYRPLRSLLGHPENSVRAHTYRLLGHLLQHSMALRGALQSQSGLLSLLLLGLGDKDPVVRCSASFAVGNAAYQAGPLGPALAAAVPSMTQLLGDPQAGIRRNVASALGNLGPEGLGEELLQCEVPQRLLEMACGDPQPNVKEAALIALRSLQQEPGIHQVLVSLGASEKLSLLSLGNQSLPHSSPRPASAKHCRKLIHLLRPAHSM
Sequence of UniProt Q02750 (whole entry, looked up): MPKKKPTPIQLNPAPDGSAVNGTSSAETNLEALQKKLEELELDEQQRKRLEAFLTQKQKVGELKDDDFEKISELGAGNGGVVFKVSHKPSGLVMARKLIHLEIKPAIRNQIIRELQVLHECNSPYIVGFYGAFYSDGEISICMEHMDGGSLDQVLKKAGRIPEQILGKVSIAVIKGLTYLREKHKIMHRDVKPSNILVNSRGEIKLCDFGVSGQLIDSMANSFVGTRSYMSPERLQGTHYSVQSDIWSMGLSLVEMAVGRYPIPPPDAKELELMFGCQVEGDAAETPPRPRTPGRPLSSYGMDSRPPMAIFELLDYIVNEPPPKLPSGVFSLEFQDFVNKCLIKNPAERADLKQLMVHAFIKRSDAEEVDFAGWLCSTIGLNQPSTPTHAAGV
Sequence of UniProt Q86UX6 (whole entry, looked up): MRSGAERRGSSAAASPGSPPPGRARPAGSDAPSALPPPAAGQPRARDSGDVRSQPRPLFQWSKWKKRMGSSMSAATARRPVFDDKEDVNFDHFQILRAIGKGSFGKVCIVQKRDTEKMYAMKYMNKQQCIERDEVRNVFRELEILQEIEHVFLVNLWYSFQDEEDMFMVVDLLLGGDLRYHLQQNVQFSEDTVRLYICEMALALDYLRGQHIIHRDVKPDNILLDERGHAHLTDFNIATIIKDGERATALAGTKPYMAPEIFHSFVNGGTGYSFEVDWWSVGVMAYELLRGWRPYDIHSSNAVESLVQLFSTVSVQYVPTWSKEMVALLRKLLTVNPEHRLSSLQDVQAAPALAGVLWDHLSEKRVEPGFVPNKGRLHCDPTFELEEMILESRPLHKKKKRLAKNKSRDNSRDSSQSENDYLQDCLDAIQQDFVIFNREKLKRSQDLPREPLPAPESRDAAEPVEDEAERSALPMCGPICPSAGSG
Sequence of UniProt P19784 (whole entry, looked up): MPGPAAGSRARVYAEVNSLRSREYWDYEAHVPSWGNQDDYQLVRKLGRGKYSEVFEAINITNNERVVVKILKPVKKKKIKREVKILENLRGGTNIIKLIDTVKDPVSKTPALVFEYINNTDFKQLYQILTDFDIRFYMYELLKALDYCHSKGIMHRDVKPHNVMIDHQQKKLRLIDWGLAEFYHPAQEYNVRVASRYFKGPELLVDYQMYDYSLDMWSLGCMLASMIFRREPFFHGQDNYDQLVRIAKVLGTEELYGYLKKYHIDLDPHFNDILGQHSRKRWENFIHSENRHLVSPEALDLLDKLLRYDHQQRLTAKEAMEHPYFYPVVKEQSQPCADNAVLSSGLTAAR

Set 1 — effect on: enzyme activity; mode: inhibitor; tested at: 0.5 µM; relative to: control
Target: Phosphorylase b kinase gamma catalytic chain, liver/testis isoform (PHKG2, Homo sapiens, UniProt P15735)
Construct (P15735 1-406): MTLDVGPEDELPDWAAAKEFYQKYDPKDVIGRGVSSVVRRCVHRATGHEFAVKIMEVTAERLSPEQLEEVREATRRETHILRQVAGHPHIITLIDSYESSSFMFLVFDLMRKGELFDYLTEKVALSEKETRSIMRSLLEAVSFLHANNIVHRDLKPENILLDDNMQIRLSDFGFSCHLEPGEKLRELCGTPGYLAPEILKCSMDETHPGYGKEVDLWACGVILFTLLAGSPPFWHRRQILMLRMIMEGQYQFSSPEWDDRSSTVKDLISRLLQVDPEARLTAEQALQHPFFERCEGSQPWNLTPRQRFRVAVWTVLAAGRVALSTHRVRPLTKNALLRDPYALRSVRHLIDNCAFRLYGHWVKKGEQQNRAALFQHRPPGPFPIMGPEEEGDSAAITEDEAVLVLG
For `Nc1nccc(-c2c(-c3ccc(F)cc3)ncn2C2CCNCC2)n1`, the remaining activity was 104%.
For `Cc1ccc(NC2=CC(=O)c3sc(C)nc3C2=O)cc1`, the remaining activity was 96.3%.
For `COc1cc(Nc2c(C#N)cnc3cc(OCCCN4CCN(C)CC4)c(OC)cc23)c(Cl)cc1Cl`, the remaining activity was 103%.
With `Fc1ccc(-c2nc3n(c2-c2ccncc2)CCS3)cc1` the remaining activity was 104%.
`CC#CC(=O)Nc1cc2c(Nc3ccc(F)c(Cl)c3)ncnc2cn1` has a remaining activity of 99%.
For `CSc1nc(-c2ccnc(N[C@@H](C)c3ccccc3)c2)c(-c2ccc(F)cc2)[nH]1` (racemic), the remaining activity was 125%.
The remaining activity of `O=C1Cc2c([nH]c3ccc([N+](=O)[O-])cc23)-c2ccccc2N1` is reported as 101%.
The remaining activity of `O=S(=O)(NCCNC/C=C/c1ccc(Br)cc1)c1cccc2cnccc12` is reported as 88.8%.
`Cc1cncc2cccc(S(=O)(=O)N3CCCN(C(=O)CN)C[C@@H]3C)c12` gave a remaining activity of 90.5%.
For `CCc1[nH]c(-c2ccc(OC)cc2)nc1-c1ccncc1`, the remaining activity was 111%.
With `N#CC(=C(N)Sc1ccc(N)cc1)c1ccccc1C(F)(F)F` the remaining activity was 96%.
For `COc1ccc(S(=O)(=O)N(CCO)c2ccccc2CN(C)CC=Cc2ccc(Cl)cc2)cc1`, the remaining activity was 103%.
The remaining activity of `CC(C)(C)n1nc(Cc2cccc3ccccc23)c2c(N)ncnc21` is reported as 95.8%.
`CC[n+]1c(/C=C/N(C)c2ccccc2)n(-c2ccccc2)c2ccc(-c3nc4ccccc4s3)cc21` gave a remaining activity of 102%.
For `Cc1cc(Nc2nc(-c3ccccc3)nc3ccccc23)n[nH]1`, the remaining activity was 86.3%.
For `O=C1NC(=O)C(c2c[nH]c3ccccc23)=C1c1c[nH]c2ccccc12`, the remaining activity was 107%.
`Oc1ccc(Nc2nc(-c3ccc(Cl)cc3)cs2)cc1` gave a remaining activity of 99.9%.
`CC(=O)c1ccc(N2CCOCC2)cc1O` gave a remaining activity of 98.1%.
With `CCCC(=O)Oc1ccc2[nH]c(C(=O)c3cc4ccccc4[nH]3)cc2c1` the remaining activity was 117%.
With `Nc1ncnc2c1cnn2-c1ccccc1` the remaining activity was 94.1%.
`NC(=O)c1ccc(N(C(N)=O)c2c(F)cccc2F)nc1-c1ccc(F)cc1F` has a remaining activity of 93.1%.

Set 2 — cell line: HaCaT; tested at: 100 µM; time: 36 h
`CC(=O)Oc1cc2c(s1)CCN(C(C(=O)C1CC1)c1ccccc1F)C2` (stereo not drawn) gave a viability of 98%.
The viability of `Clc1ccc(C(Cn2ccnc2)OCc2ccsc2Cl)c(Cl)c1` (stereo not drawn) is reported as 4.48%.
With `COc1cc2nc(N(C)CCCNC(=O)C3CCCO3)nc(N)c2cc1OC` (stereo not drawn) the viability was 54.3%.
`NCCc1ccc(O)c(O)c1` has a viability of 98.5%.
For `O=C(O)c1ccc(S(=O)(=O)N(Cl)Cl)cc1`, the viability was 84.3%.
The viability of `CC(C)c1cc2c(cc1S(=O)(=O)O)[C@@]1(C)CCC[C@@](C)(C(=O)O)[C@@H]1CC2` is reported as 92.9%.
With `CC(=O)OCC(=O)[C@@]1(O)CC[C@H]2[C@@H]3CCC4=CC(=O)CC[C@]4(C)[C@H]3C(=O)C[C@@]21C` the viability was 86.9%.
The viability of `CCCN[C@H]1CCc2nc(N)sc2C1` is reported as 90.4%.
With `Clc1ccccc1CN1CCc2sccc2C1` the viability was 85.5%.
`CCC1(C)CC(=O)NC1=O` (stereo not drawn) gave a viability of 94.1%.
`OC[C@H]1O[C@@H](c2ccc(Cl)c(Cc3ccc(O[C@H]4CCOC4)cc3)c2)[C@H](O)[C@@H](O)[C@@H]1O` gave a viability of 91.1%.
`CCCCC(CC)CN1CN(CC(CC)CCCC)CC(C)(N)C1` (stereo not drawn) has a viability of 2.9%.
The viability of `C=C(c1ccc(C(=O)O)cc1)c1cc2c(cc1C)C(C)(C)CCC2(C)C` is reported as 6.44%.
`Cc1ccc(-c2ncc(Cl)cc2-c2ccc(S(C)(=O)=O)cc2)cn1` gave a viability of 84.7%.
`COC1C(OC(N)=O)C(O)C(Oc2ccc3c(O)c(NC(=O)c4ccc(O)c(CC=C(C)C)c4)c(=O)oc3c2C)OC1(C)C` (stereo not drawn) has a viability of 81.5%.
For `O=C1CCc2cc(OCCCCc3nnnn3C3CCCCC3)ccc2N1`, the viability was 77%.
`CC[C@H]1OC(=O)[C@@](C)(F)C(=O)[C@H](C)[C@@H](O[C@@H]2O[C@H](C)C[C@H](N(C)C)[C@H]2O)[C@](C)(OC)C[C@@H](C)C(=O)[C@H](C)[C@H]2N(CCCCn3cc(-c4cccc(N)c4)nn3)C(=O)O[C@]12C` gave a viability of 6.12%.
For `COc1cc([C@H]2Oc3cc([C@H]4Oc5cc(O)cc(O)c5C(=O)[C@@H]4O)ccc3O[C@@H]2CO)ccc1O`, the viability was 58.5%.
`CN(C)CCCOc1nn(Cc2ccccc2)c2ccccc12` gave a viability of 5.1%.

Set 3 — organism: Sarcocystis neurona; effect on: parasite activity; tested at: 10 µM; time: 96 h
Under activity class, `C=CC1=C(C(=O)O)N2C(=O)[C@@H](NC(=O)/C(=N\O)c3csc(N)n3)[C@H]2SC1` is recorded as “inactive”.
`CC1CNc2c(cccc2S(=O)(=O)N[C@@H](CCCNC(=N)N)C(=O)N2CC[C@@H](C)C[C@@H]2C(=O)O)C1` (stereo partly drawn) — result for activity class: “inactive”.
`CC(C)c1nc(CN(C)C(=O)N[C@H](C(=O)N[C@@H](Cc2ccccc2)C[C@H](O)[C@H](Cc2ccccc2)NC(=O)OCc2cncs2)C(C)C)cs1`: activity class “inactive”.
For `CC(C[N+](C)(C)C)OC(N)=O` (stereo not drawn), activity class read “inactive”.
`CC(C)[C@H]1CC[C@H](C(=O)N[C@H](Cc2ccccc2)C(=O)O)CC1` — result for activity class: “inactive”.
`O=C(O)CCc1nc(-c2ccccc2)c(-c2ccccc2)o1`: activity class “inactive”.
For `Clc1ccc2c(c1)C(N1CCNCC1)=Nc1ccccc1O2`, activity class read “inactive”.
`O=c1c(O[C@@H]2O[C@H](CO)[C@H](O)[C@H](O)[C@H]2O)c(-c2ccc(O)c(O)c2)oc2cc(O)cc(O)c12`: activity class “inactive”.
`CN(C)CC/C=C1/c2ccccc2COc2ccc(CC(=O)O)cc21` — result for activity class: “inactive”.
For `CCC1(c2ccccc2)C(=O)NCNC1=O`, activity class read “inactive”.
Under activity class, `CCN1CCC[C@H]1CNC(=O)c1c(O)c(Cl)cc(Cl)c1OC` is recorded as “inactive”.
`NS(=O)(=O)c1cc2c(cc1Cl)NCNS2(=O)=O` — result for activity class: “inactive”.

Set 4 — tested at: 1 µM
SMILES: C[C@H](NC(=O)c1cnc2n1[C@](C)(Cc1ccc(C#N)cc1)C(=O)N2c1cc(Cl)c(F)c(Cl)c1)C(=O)NC1(c2ccccn2)CC1
The remaining binding was 100% (Serine/threonine-protein kinase 32C (STK32C, Homo sapiens, UniProt Q86UX6); cell-free assay, competition with immobilised ligand).
It gave 100% for remaining binding (Ribosomal protein S6 kinase alpha-2, N-terminal kinase domain (RPS6KA2, Homo sapiens, UniProt Q15349); cell-free assay, competition with immobilised ligand).
It gave 100% for remaining binding (Mitogen-activated protein kinase kinase kinase kinase 2 (MAP4K2, Homo sapiens, UniProt Q12851); cell-free assay, competition with immobilised ligand).
The remaining binding was 100% (Phosphatidylinositol 4,5-bisphosphate 3-kinase catalytic subunit alpha isoform (PIK3CA, Homo sapiens, UniProt P42336, E542K); cell-free assay, competition with immobilised ligand).
For Proto-oncogene tyrosine-protein kinase Src (SRC, Homo sapiens, UniProt P12931); cell-free assay, competition with immobilised ligand: remaining binding read 100%.
It gave 100% for remaining binding (RAC-beta serine/threonine-protein kinase (AKT2, Homo sapiens, UniProt P31751); cell-free assay, competition with immobilised ligand).
The remaining binding was 99% (Casein kinase II subunit alpha' (CSNK2A2, Homo sapiens, UniProt P19784); cell-free assay, competition with immobilised ligand).
The remaining binding was 92% (Dual specificity mitogen-activated protein kinase kinase 1 (MAP2K1, Homo sapiens, UniProt Q02750); cell-free assay, competition with immobilised ligand).
It gave 100% for remaining binding (Epidermal growth factor receptor (EGFR, Homo sapiens, UniProt P00533, L858R); cell-free assay, competition with immobilised ligand).
MAP kinase-interacting serine/threonine-protein kinase 2 (MKNK2, Homo sapiens, UniProt Q9HBH9); cell-free assay, competition with immobilised ligand — remaining binding: 100%.
It gave 100% for remaining binding (Serine/threonine-protein kinase 36 (STK36, Homo sapiens, UniProt Q9NRP7); cell-free assay, competition with immobilised ligand).
MAP/microtubule affinity-regulating kinase 4 (MARK4, Homo sapiens, UniProt Q96L34); cell-free assay, competition with immobilised ligand — remaining binding: 100%.
Hepatocyte growth factor receptor (MET, Homo sapiens, UniProt P08581, Y1235D); cell-free assay, competition with immobilised ligand — remaining binding: 100%.
Ephrin type-A receptor 7 (EPHA7, Homo sapiens, UniProt Q15375); cell-free assay, competition with immobilised ligand — remaining binding: 84%.
For Activin receptor type-1B (ACVR1B, Homo sapiens, UniProt P36896); cell-free assay, competition with immobilised ligand: remaining binding read 99%.
SRSF protein kinase 1 (SRPK1, Homo sapiens, UniProt Q96SB4); cell-free assay, competition with immobilised ligand — remaining binding: 81%.
Serine/threonine-protein kinase SBK1 (SBK1, Homo sapiens, UniProt Q52WX2); cell-free assay, competition with immobilised ligand — remaining binding: 100%.
Dual specificity protein kinase TTK (TTK, Homo sapiens, UniProt P33981); cell-free assay, competition with immobilised ligand — remaining binding: 100%.
The remaining binding was 81% (Cyclin-dependent kinase 19 (CDK19, Homo sapiens, UniProt Q9BWU1); competition binding).
The remaining binding was 98% (Myosin light chain kinase 2, skeletal/cardiac muscle (MYLK2, Homo sapiens, UniProt Q9H1R3); cell-free assay, competition with immobilised ligand).

Excerpt of the above (set 3):
For `CCC1(c2ccccc2)C(=O)NCNC1=O`, activity class read “inactive”.
Under activity class, `CCN1CCC[C@H]1CNC(=O)c1c(O)c(Cl)cc(Cl)c1OC` is recorded as “inactive”.
`CC1CNc2c(cccc2S(=O)(=O)N[C@@H](CCCNC(=N)N)C(=O)N2CC[C@@H](C)C[C@@H]2C(=O)O)C1` (stereo partly drawn) — result for activity class: “inactive”.
`O=C(O)CCc1nc(-c2ccccc2)c(-c2ccccc2)o1`: activity class “inactive”.
For `CC(C[N+](C)(C)C)OC(N)=O` (stereo not drawn), activity class read “inactive”.
`NS(=O)(=O)c1cc2c(cc1Cl)NCNS2(=O)=O` — result for activity class: “inactive”.
`CC(C)c1nc(CN(C)C(=O)N[C@H](C(=O)N[C@@H](Cc2ccccc2)C[C@H](O)[C@H](Cc2ccccc2)NC(=O)OCc2cncs2)C(C)C)cs1`: activity class “inactive”.
For `Clc1ccc2c(c1)C(N1CCNCC1)=Nc1ccccc1O2`, activity class read “inactive”.
`O=c1c(O[C@@H]2O[C@H](CO)[C@H](O)[C@H](O)[C@H]2O)c(-c2ccc(O)c(O)c2)oc2cc(O)cc(O)c12`: activity class “inactive”.
`CC(C)[C@H]1CC[C@H](C(=O)N[C@H](Cc2ccccc2)C(=O)O)CC1` — result for activity class: “inactive”.
Under activity class, `C=CC1=C(C(=O)O)N2C(=O)[C@@H](NC(=O)/C(=N\O)c3csc(N)n3)[C@H]2SC1` is recorded as “inactive”.
`CN(C)CC/C=C1/c2ccccc2COc2ccc(CC(=O)O)cc21` — result for activity class: “inactive”.
